Results of several laboratories.
Each line is one published result; not all experiments were run side by side.
TDP1: Tyrosyl-DNA phosphodiesterase 1 (TDP1, Homo sapiens, UniProt Q9NUW8)
UniProt Q9NUW8, sequence (whole entry, looked up): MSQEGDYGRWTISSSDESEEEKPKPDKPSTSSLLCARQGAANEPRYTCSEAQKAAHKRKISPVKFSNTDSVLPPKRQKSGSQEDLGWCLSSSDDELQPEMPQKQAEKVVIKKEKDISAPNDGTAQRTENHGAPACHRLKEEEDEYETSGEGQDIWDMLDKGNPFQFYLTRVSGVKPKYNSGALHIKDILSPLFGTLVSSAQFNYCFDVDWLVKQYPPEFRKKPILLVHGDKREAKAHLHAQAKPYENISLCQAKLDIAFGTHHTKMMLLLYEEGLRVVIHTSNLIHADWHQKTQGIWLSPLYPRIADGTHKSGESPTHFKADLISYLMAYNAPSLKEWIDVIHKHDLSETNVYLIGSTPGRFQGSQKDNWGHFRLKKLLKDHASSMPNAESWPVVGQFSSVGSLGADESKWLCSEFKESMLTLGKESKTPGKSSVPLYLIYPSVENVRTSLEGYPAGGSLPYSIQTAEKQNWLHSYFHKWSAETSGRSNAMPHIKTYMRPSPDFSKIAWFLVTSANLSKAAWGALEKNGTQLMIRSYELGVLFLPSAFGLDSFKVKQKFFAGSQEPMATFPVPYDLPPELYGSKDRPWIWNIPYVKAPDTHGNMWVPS

Compound	target or system	assay	system	setting	quantity	value
O=C(OC(C(F)(F)F)C(F)(F)F)N1CCC(CNS(=O)(=O)c2ccc(Cl)cc2)CC1	–	–	male SCID mouse, plasma	oral, 30 mg/kg	Tmax	4 h
[2H]C([2H])([2H])NC(=O)c1ccc(N2C(=S)N(c3ccc(C#N)c(C(F)(F)F)c3)C(=O)C2(C)C)cc1F	–	–	male human, plasma	oral, 40 mg, single dose, fasted	Tmax	1.35 h
Cc1cc(NC(=O)[C@H](O)c2cc(F)cc(F)c2)ccc1-c1cnc(N)c(C(=O)NC(C)C)c1	–	–	female nude mouse, plasma	oral, 10 mg/kg, single dose	Tmax	1 h
C/C(N)=N/C(=N\S(=O)(=O)c1ccc(C(F)(F)F)cc1)N1C[C@H](c2ccccc2)C(c2ccc(Cl)cc2)=N1	–	–	beagle dog, plasma	oral, 24 mg/kg	Tmax	2 h
COc1cnc2cccc(N3CCc4c(cc(Cn5ccnc5)cc4-c4cn(C)nc4C(F)(F)F)C3=O)c2c1	–	–	male CD-1 mouse, plasma	oral, 10 mg/kg	Tmax	0.3 h
N#Cc1ccc(-c2ccc(C=NOCc3ccc(-c4nc5cc(-c6ccccc6)ccn5c4Nc4ccc(C(=O)O)cc4)cc3)cc2)nc1	TDP1	enzyme activity, inhibitor	–	100 µM, unpurified oxime	inhibition	98.7%
CC(C)C[C@H](NC(=O)[C@H](CCCN)NC(=O)CNC(=O)[C@@H](NC(=O)[C@H](C)NC(=O)[C@@H]1CSCSC[C@H](NC(=O)CC[C@H](N)C(=O)O)C(=O)N[C@@H](CC(N)=O)C(=O)N[C@@H]([C@@H](C)O)C(=O)N[C@@H](C)C(=O)N[C@@H]([C@@H](C)O)C(=O)N1)[C@@H](C)O)C(=O)N[C@@H](C)C(=O)N[C@@H](CCC(=O)O)C(=O)N[C@@](C)(Cc1ccccc1)C(=O)N[C@@H](CC(C)C)C(=O)N[C@H](C(=O)N[C@@H](CCCNC(=N)N)C(=O)N[C@@H](CO)C(=O)N[C@@H](CO)C(=O)N[C@@H](CC(N)=O)C(=O)N(C)[C@@H](CC(N)=O)C(=O)N[C@@H](Cc1ccccc1)C(=O)NCC(=O)N1CCC[C@H]1C(=O)N[C@@H](CCCCNC(=O)CC[C@H](NC(=O)CC[C@H](NC(=O)CCCCCCCCCCCCCCCCCCC(=O)O)C(=O)O)C(=O)O)C(=O)N[C@@H](CC(C)C)C(=O)N1CCC[C@H]1C(=O)N1CCC[C@H]1C(=O)N[C@H](C(=O)N[C@@H](CCC(=O)O)C(=O)N[C@H](C(=O)NCC(=O)N[C@@H](CO)C(=O)N[C@@H](CC(N)=O)C(=O)N[C@H](C(=O)N[C@@H](Cc1ccc(O)cc1)C(N)=O)[C@@H](C)O)C(C)C)[C@@H](C)O)C(C)C	–	–	human, plasma	subcutaneous, 12 mg, single dose, healthy volunteers	Tmax	96 h
COc1cc2ncnc(Oc3ccc(Nc4nccc5[nH]cc(-c6ccc(F)cc6)c(=O)c45)cc3F)c2cc1OC	–	–	male beagle dog, plasma	oral, 4 mg/kg	Tmax	2.33 h
CN(C)C=C(C=NOCc1ccc(-c2nc3cc(-c4ccccc4)ccn3c2Nc2ccc(C(=O)O)cc2)cc1)c1ccccc1[N+](=O)[O-] (mixture of isomers)	TDP1	enzyme activity, inhibitor	–	100 µM, unpurified compound	inhibition	27%
C=C(NC(=O)c1csc(-c2nc3c(cc2O)-c2nc(cs2)C(=O)NC(C(C)O)C(=O)NC(=C(C)OC)c2nc(cs2)C(=O)NC2c4nc(cs4)C(=O)NC(COC(=O)c4c5c6c(cccc6n4O)COC(=O)C(OC4CC(C)(O)C(N(C)C)C(C)O4)C2OC5)c2nc-3cs2)n1)C(N)=O (stereo not shown)	–	–	ICR mice, Streptococcus pneumoniae ATCC 49169 infected, immunocompromised, blood	intravenous, 16 mg/kg/day once daily	Tmax	0.08 h

For quick reference, copied from above:
Compound	target or system	assay	system	setting	quantity	value
[2H]C([2H])([2H])NC(=O)c1ccc(N2C(=S)N(c3ccc(C#N)c(C(F)(F)F)c3)C(=O)C2(C)C)cc1F	–	–	male human, plasma	oral, 40 mg, single dose, fasted	Tmax	1.35 h
